Experimental data gathered from unrelated publications.
Parts stem from different laboratories: compare values within a part only. Substitutions count along the parent as printed.
Chain of UniProt P14616 (whole entry, looked up): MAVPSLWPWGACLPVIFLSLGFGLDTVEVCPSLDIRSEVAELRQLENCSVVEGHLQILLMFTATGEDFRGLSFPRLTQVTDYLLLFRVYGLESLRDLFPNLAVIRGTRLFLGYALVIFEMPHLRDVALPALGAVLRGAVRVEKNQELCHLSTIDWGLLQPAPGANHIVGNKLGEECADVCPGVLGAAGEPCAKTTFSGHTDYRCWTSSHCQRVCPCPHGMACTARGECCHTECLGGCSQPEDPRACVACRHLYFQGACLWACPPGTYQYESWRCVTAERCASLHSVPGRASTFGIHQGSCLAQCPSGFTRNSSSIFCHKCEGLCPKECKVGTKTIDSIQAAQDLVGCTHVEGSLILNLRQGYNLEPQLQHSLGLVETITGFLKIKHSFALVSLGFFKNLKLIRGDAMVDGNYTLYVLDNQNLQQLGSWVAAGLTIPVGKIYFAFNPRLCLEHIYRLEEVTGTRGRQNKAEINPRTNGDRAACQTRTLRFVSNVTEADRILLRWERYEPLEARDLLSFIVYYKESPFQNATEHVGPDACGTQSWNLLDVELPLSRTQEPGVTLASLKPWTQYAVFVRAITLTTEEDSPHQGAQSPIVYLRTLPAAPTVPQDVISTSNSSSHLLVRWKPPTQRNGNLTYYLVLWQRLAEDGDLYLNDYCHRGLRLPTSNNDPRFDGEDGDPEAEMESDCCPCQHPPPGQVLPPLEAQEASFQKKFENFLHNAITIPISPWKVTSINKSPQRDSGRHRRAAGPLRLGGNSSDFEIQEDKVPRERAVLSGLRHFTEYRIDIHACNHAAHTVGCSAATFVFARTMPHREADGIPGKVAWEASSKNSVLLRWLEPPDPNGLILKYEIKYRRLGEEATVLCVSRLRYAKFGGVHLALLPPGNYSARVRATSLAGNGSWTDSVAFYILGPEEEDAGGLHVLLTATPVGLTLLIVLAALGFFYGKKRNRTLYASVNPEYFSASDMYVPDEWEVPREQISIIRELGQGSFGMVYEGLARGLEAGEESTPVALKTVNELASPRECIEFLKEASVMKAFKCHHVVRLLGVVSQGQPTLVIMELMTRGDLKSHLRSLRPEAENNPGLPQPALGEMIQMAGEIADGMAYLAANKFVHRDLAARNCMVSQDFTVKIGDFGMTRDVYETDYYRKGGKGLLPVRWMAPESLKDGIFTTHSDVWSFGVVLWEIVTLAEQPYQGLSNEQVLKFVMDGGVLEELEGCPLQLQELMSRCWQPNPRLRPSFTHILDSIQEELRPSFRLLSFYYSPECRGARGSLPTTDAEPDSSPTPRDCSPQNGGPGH
Chain of UniProt O94806 (whole entry, looked up): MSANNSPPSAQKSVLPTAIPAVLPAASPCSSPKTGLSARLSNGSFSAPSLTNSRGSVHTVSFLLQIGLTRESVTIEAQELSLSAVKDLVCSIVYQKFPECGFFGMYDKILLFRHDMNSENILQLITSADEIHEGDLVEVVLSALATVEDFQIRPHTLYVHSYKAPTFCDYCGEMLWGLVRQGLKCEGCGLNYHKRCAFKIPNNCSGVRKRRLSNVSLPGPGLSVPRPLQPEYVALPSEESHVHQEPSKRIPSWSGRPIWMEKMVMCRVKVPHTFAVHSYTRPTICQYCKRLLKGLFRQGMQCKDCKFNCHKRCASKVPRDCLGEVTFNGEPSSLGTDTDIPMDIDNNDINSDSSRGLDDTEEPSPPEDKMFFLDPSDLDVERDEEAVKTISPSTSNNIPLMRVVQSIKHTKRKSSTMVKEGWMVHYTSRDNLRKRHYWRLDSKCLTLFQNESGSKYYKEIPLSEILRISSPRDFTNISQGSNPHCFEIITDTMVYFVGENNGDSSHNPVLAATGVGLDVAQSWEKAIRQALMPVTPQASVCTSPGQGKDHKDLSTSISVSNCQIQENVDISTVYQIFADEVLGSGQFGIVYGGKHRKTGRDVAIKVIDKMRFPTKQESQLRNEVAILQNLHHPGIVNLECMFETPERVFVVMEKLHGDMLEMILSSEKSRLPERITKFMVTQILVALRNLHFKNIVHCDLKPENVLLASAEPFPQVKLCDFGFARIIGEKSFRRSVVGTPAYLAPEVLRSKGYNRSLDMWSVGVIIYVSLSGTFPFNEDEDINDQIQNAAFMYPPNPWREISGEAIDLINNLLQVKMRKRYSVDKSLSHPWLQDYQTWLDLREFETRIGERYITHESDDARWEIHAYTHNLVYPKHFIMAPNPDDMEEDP
Chain of UniProt Q7L7X3 (whole entry, looked up): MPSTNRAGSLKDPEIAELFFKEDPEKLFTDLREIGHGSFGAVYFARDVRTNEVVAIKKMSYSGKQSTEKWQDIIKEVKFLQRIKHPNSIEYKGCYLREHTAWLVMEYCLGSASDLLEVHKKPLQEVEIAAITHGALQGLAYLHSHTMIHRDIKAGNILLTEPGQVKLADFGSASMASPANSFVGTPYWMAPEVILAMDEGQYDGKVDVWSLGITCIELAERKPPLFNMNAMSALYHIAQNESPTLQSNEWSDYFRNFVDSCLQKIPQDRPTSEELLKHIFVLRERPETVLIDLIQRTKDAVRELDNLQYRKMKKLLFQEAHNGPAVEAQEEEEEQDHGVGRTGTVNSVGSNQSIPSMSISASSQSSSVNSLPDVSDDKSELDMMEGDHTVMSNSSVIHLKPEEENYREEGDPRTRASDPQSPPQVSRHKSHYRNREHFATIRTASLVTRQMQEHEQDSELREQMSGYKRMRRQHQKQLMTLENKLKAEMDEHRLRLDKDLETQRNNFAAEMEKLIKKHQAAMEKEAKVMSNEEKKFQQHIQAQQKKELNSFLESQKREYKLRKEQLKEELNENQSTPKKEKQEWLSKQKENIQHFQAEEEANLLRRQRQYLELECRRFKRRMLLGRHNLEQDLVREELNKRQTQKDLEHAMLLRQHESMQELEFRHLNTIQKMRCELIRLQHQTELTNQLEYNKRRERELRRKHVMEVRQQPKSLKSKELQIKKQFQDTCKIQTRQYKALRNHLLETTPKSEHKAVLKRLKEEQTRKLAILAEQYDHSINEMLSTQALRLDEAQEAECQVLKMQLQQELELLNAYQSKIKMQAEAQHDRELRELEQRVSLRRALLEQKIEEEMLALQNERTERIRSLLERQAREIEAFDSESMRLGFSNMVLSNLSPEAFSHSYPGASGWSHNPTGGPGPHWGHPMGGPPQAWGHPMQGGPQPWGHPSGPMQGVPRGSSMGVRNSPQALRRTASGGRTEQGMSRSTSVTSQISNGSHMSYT

Study 1
Target: vanadate, free oxyanion
Method: microfluidic competitive inhibition
Medium: in vitro, cell-free expressed
Concentration: not given
Setting: derived from inhibition constants, unchanged parent 676 nM
Reading: lower = stronger binding
Measurement: oxyanion analog dissociation constant
Starting sequence: PafA, mature enzyme, eGFP fusion (Elizabethkingia meningoseptica, UniProt Q9KJX5); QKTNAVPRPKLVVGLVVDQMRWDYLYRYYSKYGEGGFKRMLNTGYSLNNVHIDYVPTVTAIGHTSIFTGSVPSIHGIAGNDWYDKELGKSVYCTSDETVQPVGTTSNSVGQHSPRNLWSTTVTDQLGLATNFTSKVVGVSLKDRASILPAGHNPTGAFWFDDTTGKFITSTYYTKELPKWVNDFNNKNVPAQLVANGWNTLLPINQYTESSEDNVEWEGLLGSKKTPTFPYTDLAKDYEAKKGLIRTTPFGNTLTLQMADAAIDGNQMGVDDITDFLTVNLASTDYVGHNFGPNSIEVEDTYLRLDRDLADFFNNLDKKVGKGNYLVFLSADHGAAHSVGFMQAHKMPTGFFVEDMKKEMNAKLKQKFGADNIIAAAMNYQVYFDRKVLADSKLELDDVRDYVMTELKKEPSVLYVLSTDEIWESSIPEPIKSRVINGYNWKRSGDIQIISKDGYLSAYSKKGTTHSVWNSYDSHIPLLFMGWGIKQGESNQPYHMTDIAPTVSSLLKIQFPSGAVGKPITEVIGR
Substitution = I427V; value = 779 nM
Substitution = Q19G; value = 54.1 µM
Substitution = L193V; value = 581 nM
Substitution = Y26V; value = 660 nM
Substitution = F313V; value = 710 nM
Substitution = T174V; value = 626 nM
Substitution = L126V; value = 473 nM
Substitution = K365G; value = 622 nM

Study 2
Target: 5-hydroxytryptamine receptor 2C (HTR2C, Homo sapiens, UniProt P28335)
Chain of UniProt P28335 (whole entry, looked up): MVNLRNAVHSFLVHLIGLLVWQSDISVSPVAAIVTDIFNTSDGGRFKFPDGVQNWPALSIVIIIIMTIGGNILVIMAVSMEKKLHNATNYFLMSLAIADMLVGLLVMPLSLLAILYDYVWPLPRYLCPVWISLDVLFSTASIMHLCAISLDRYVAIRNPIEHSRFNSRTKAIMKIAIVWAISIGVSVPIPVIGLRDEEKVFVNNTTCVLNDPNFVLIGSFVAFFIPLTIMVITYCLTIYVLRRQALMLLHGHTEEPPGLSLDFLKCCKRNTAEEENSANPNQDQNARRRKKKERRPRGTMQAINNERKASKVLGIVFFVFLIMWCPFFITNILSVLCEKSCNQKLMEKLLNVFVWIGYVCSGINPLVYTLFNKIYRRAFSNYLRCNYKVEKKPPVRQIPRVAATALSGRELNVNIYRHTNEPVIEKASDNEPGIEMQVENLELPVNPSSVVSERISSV
Effect on: ligand displacement
Concentration: 10 µM
Measurement: inhibition
SMILES = c1ccc(N2CCN(Cc3nc4ccccc4[nH]3)CC2)nc1; value = 0.0823%
SMILES = CC1CCN(c2ccnc(NCc3cn(C)cn3)n2)CC1; value = 89.2%
SMILES = CC(=O)c1c(NS(C)(=O)=O)c2cc(-c3ccc(Cl)cc3)c(-c3ccc(Cl)cc3Cl)nc2n(C)c1=O; value = 81.8%

Study 3
Target: CCNE2, cyclin fold, Cln2 fusion (human)
Method: yeast growth competition, sequencing
Medium: yeast
Setting: strong parent motif
Baseline: not given
Reading: higher = stronger binding
Measurement: normalised enrichment score
Starting sequence: viral docking peptide; KGVKRKLFAEDSS; partner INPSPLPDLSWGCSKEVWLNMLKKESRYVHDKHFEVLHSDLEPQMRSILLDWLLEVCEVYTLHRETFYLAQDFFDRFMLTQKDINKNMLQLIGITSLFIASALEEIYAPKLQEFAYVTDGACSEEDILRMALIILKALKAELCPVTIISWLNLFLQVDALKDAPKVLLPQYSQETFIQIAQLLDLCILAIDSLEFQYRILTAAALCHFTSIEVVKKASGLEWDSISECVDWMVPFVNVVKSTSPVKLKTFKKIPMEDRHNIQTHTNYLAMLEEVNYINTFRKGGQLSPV
Substitution = F8L; value = 0.263
Substitution = L7E; value = 0.612
Substitution = V3Y; value = 5.2
Substitution = V3P; value = 5.12
Substitution = E10D; value = 7.27
Substitution = F8I; value = 0.373
Substitution = K6S; value = 1.93
Substitution = A9C; value = 6.81

Study 4
SMILES: COc1ccc2c(c[n+](C)c3c4cc5c(cc4ccc23)OCO5)c1OC
Effect on: enzyme activity
Action: inhibitor
Concentration: 0.5 µM
Baseline: control
Measurement: remaining activity
target = INSRR (Homo sapiens, UniProt P14616); value = 91.8%
target = TAOK1 (Homo sapiens, UniProt Q7L7X3); value = 105%
target = PRKD3 (Homo sapiens, UniProt O94806); value = 99.3%

Excerpt of the above (study 1):
Substitution = T174V; value = 626 nM
Substitution = L126V; value = 473 nM
Substitution = K365G; value = 622 nM
